Published values from different studies.
Compare with care: the assays were run in different laboratories. ± marks the error that the study gave.
BCHE: Cholinesterase (BCHE, Equus caballus, UniProt P81908)
Sequence of UniProt P81908 (whole entry, looked up): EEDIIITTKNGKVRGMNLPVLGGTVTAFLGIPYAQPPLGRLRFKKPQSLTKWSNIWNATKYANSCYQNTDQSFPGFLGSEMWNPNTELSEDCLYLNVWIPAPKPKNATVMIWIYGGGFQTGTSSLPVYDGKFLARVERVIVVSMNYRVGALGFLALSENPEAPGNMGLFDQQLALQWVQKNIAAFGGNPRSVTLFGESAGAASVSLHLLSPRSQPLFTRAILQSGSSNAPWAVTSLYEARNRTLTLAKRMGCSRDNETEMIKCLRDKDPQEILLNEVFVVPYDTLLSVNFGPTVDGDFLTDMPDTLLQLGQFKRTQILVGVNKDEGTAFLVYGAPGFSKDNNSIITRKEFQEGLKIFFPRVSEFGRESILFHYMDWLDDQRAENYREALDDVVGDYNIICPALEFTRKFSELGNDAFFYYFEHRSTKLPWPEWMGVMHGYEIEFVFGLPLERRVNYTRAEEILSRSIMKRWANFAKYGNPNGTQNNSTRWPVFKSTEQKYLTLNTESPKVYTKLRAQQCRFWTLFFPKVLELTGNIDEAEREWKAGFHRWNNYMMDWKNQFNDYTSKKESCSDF
Sequence of UniProt P29350 (whole entry, looked up): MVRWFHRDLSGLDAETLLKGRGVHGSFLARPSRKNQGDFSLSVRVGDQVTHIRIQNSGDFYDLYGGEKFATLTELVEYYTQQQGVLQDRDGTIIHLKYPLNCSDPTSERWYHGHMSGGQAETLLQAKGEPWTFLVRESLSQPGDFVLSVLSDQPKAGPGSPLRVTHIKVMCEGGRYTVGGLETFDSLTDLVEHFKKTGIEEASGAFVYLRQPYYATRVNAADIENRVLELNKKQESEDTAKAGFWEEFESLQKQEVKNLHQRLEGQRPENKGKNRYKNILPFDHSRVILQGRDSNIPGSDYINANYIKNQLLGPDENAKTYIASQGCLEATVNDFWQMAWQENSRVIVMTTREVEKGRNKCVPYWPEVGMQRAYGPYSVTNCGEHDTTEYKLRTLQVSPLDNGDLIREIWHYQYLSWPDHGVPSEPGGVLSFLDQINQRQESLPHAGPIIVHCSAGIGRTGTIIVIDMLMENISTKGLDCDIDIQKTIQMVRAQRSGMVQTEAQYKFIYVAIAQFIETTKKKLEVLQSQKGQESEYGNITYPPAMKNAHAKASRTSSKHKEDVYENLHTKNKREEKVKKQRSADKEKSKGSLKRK
Sequence of UniProt O66465 (whole entry, unmodified, looked up): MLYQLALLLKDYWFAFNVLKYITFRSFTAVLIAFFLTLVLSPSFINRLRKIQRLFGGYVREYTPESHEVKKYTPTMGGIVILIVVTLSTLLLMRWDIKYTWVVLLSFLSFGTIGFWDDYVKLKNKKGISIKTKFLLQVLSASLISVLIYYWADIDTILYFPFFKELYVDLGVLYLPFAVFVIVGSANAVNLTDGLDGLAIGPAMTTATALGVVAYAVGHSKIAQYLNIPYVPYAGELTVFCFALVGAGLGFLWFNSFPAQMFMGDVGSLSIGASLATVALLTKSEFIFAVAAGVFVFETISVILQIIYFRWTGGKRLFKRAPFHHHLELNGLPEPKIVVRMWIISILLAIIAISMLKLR
Sequence of UniProt P08253 (whole entry, looked up): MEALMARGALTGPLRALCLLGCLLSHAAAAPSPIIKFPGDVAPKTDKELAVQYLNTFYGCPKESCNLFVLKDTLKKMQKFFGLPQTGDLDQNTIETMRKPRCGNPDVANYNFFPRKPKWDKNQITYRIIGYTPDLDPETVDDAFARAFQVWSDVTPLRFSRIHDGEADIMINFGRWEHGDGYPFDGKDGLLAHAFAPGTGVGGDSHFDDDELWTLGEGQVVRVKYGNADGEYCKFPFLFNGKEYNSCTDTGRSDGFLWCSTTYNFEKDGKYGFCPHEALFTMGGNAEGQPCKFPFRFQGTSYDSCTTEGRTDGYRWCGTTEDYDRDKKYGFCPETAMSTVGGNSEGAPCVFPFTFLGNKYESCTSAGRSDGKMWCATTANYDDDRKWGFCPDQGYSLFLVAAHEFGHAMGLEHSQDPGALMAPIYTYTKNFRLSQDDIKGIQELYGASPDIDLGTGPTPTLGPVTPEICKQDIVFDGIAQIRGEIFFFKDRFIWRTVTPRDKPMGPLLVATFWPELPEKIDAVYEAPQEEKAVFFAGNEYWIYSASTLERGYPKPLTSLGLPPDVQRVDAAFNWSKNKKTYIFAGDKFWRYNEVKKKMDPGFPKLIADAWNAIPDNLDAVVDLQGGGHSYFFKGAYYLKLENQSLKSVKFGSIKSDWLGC
Sequence of UniProt P07711 (whole entry, looked up): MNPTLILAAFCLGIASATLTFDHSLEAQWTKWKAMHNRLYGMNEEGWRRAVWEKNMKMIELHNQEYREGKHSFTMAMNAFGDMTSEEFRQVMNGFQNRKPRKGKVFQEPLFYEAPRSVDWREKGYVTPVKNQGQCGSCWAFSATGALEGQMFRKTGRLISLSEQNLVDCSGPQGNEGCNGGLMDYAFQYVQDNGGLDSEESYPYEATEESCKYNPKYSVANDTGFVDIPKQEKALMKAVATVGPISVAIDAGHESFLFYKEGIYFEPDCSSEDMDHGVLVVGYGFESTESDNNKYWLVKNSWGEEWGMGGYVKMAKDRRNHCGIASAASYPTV
Sequence of UniProt P11388 (whole entry, looked up): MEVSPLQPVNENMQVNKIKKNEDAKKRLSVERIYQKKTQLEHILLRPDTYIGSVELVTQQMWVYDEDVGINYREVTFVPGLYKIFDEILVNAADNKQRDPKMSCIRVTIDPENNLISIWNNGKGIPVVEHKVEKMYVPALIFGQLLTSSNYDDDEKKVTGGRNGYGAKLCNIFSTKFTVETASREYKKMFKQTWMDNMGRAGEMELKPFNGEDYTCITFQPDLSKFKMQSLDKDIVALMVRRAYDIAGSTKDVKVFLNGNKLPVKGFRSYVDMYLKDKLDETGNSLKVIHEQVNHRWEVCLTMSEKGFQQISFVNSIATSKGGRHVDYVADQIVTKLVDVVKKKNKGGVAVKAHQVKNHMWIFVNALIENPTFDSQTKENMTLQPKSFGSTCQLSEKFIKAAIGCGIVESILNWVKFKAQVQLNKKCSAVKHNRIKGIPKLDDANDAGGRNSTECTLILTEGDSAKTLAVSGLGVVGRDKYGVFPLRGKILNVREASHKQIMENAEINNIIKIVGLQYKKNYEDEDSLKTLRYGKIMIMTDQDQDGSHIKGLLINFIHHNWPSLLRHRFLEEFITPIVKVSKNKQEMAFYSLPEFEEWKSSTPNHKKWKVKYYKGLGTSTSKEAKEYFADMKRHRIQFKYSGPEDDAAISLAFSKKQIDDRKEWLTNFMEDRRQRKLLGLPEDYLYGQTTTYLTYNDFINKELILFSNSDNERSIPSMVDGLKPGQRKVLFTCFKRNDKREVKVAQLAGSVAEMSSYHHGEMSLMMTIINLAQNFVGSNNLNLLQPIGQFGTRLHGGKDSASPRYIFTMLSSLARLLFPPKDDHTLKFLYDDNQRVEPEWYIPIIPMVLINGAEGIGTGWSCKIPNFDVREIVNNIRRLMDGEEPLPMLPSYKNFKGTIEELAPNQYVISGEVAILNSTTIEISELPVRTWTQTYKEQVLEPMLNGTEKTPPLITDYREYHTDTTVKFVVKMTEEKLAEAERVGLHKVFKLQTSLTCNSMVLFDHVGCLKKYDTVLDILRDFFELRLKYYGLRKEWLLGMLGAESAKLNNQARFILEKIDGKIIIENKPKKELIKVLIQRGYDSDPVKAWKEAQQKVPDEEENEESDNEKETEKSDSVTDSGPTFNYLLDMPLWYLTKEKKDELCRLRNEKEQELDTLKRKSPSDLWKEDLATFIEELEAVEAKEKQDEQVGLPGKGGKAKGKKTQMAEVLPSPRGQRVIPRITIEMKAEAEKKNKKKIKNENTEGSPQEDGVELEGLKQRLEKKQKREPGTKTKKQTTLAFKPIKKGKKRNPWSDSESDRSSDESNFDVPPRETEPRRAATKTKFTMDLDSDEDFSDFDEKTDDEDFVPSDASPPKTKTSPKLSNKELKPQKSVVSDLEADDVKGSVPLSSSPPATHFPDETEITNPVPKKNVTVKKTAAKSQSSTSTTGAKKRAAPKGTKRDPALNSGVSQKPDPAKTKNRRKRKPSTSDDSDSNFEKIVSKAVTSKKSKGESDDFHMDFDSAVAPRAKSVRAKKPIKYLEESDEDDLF
Sequence of UniProt P42330 (whole entry, looked up): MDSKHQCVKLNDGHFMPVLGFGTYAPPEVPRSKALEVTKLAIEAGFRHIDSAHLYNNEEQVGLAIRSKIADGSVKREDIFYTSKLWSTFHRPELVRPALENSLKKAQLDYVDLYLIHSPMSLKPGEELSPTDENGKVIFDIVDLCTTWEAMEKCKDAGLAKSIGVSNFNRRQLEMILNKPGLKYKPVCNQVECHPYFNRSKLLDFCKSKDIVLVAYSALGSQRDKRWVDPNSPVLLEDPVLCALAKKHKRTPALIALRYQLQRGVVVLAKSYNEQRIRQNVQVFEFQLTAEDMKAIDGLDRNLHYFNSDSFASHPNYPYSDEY

SMILES	target	assay	test system	conditions	inhibition
O=C(NCCc1cccc(F)c1)[C@@H](c1cncnc1)N(C(=O)[C@H](F)Cl)c1ccc(S(F)(F)(F)(F)F)cc1	Procathepsin L (CTSL, Homo sapiens, UniProt P07711)	inhibitor	–	20 µM	no inhibition
O=C(CN1CCN(c2cc3c(cc2F)c(=O)c(C(=O)O)cn3C2CC2)CC1)Nc1ccc(Cl)cc1	DNA topoisomerase 2-alpha (TOP2A, Homo sapiens, UniProt P11388)	enzyme activity, inhibitor	–	100 µM	96.1%
CC(C)CC(NC(=O)C(NC(=O)NC(C(=O)O)C(C)C)C1CCNC(=N)N1)C(=O)NCCCNC(C(=O)O)C(OC1OC(CN)C(O)C1O)C1OC(n2ccc(=O)[nH]c2=O)C(O)C1O (stereo not shown)	Phospho-N-acetylmuramoyl-pentapeptide-transferase (mraY, Aquifex aeolicus, UniProt O66465, D193N)	enzyme activity, inhibitor, radiochemical transfer	–	1 µM, D193N mutant	no inhibition
C[C@]12CC[C@@H]3c4cc(Cl)c(O)c(Cl)c4CC[C@H]3[C@@H]1CCC2=O	Aldo-keto reductase family 1 member C3 (AKR1C3, Homo sapiens, UniProt P42330)	enzyme activity, inhibitor, absorbance	–	100 µM, pH 9	90.4%
c1ccc(Nc2c3c(nc4ccccc24)CCCC3)cc1	BCHE	enzyme activity, inhibitor	–	50 µM	-59.1%
C[C@@](O)(C(F)F)[C@H](NC(=O)c1ccc(C#CC#CC2CC2)cc1)C(=O)NO	72 kDa type IV collagenase (MMP2, Homo sapiens, UniProt P08253)	enzyme activity, inhibitor	–	30 µM	≤ 30%
CC(=O)NC(Cc1ccc(Br)c(Cl)c1)C(=O)N[C@@H](C)C(=O)N1CCC[C@H]1C(=O)N1CCC[C@H]1C(=O)N[C@@H](CCC(=O)O)C(=O)N[C@@H](Cc1c[nH]cn1)C(=O)N[C@@H](CO)C(=O)N[C@H](C(=O)N[C@@H](C)C(N)=O)[C@@H](C)OP(=O)(O)O (stereo partly shown)	Mitogen-activated protein kinase kinase kinase kinase 4 (MAP4K4, Homo sapiens, UniProt O95819)	enzyme activity, inhibitor	–	10 µM	5.45%
c1cc(Nc2c3c(nc4ccccc24)CCCC3)c2cccnc2c1	BCHE	enzyme activity, inhibitor	–	100 µM	-23.3%
CC(C)[C@H]1NC(=O)[C@H](CO)NC(=O)c2cc3cc(c2)C(=O)NC[C@H](NC(=O)[C@H](Cc2c[nH]cn2)NC(=O)[C@H](Cc2ccc(C(F)(F)P(=O)(O)O)cc2)NC(=O)[C@@H]2CCCN2C1=O)C(=O)N[C@@H](Cc1ccccc1)C(=O)N[C@@H](Cc1ccc2ccccc2c1)C(=O)N[C@@H](CCCNC(=N)N)C(=O)N[C@@H](CCCNC(=N)N)C(=O)N[C@@H](CCCNC(=N)N)C(=O)N[C@@H](CCCNC(=N)N)C(=O)N[C@H](C(=O)N[C@@H](CCCCN)C(N)=O)CNC3=O	Tyrosine-protein phosphatase non-receptor type 6 (PTPN6, Homo sapiens, UniProt P29350)	enzyme activity, inhibitor, absorbance	–	1 µM	≤ 10%
OC[C@H]1O[C@@H](Oc2ccc(-c3ccccc3)cc2)[C@H](O)[C@@H](O)[C@H]1O	Adhesin FmlH, lectin domain (Escherichia coli, UniProt Q1RBS0)	binding to desialylated mucin, ELISA competition	UPEC UTI89	100 µM	30%
COc1ccc2cc(Nc3c4c(nc5ccccc35)CCCC4)ccc2c1	BCHE	enzyme activity, inhibitor	–	50 µM	46.3%
CCCc1cnn2c(NCc3ccc(C)s3)nc(N[C@H](CC)CO)nc12	Cyclin-dependent kinase 2 (CDK2, Homo sapiens, UniProt P24941)	enzyme activity	–	2 µM	~25%
COC(=O)C1=CO[C@@H](OC(C)=O)[C@@H]2C(Cn3cc(CCN4C(=O)c5ccccc5C4=O)nn3)=CC[C@H]12	BCHE	inhibitor	horse serum BuChE	10000 µM	99.85 ± 0.13%

Some of these lines once more:
SMILES	target	assay	test system	conditions	inhibition
CC(C)[C@H]1NC(=O)[C@H](CO)NC(=O)c2cc3cc(c2)C(=O)NC[C@H](NC(=O)[C@H](Cc2c[nH]cn2)NC(=O)[C@H](Cc2ccc(C(F)(F)P(=O)(O)O)cc2)NC(=O)[C@@H]2CCCN2C1=O)C(=O)N[C@@H](Cc1ccccc1)C(=O)N[C@@H](Cc1ccc2ccccc2c1)C(=O)N[C@@H](CCCNC(=N)N)C(=O)N[C@@H](CCCNC(=N)N)C(=O)N[C@@H](CCCNC(=N)N)C(=O)N[C@@H](CCCNC(=N)N)C(=O)N[C@H](C(=O)N[C@@H](CCCCN)C(N)=O)CNC3=O	Tyrosine-protein phosphatase non-receptor type 6 (PTPN6, Homo sapiens, UniProt P29350)	enzyme activity, inhibitor, absorbance	–	1 µM	≤ 10%
OC[C@H]1O[C@@H](Oc2ccc(-c3ccccc3)cc2)[C@H](O)[C@@H](O)[C@H]1O	Adhesin FmlH, lectin domain (Escherichia coli, UniProt Q1RBS0)	binding to desialylated mucin, ELISA competition	UPEC UTI89	100 µM	30%
